Measured values from different studies.
Each numbered part is a random draw from the data of one study; scales do not carry over between parts.
Sequence of UniProt Q9UEE5 (whole entry, looked up): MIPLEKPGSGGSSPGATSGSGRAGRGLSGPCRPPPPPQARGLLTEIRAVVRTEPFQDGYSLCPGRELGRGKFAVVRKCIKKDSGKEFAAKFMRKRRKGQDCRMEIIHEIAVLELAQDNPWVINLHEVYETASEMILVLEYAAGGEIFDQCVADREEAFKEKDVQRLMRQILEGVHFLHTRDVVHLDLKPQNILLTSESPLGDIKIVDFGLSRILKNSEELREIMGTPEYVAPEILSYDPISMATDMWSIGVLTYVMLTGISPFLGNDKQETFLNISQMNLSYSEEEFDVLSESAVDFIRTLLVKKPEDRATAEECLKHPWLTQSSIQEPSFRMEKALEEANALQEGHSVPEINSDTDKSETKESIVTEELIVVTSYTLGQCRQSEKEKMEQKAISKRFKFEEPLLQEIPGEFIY
Sequence of UniProt O43781 (whole entry, looked up): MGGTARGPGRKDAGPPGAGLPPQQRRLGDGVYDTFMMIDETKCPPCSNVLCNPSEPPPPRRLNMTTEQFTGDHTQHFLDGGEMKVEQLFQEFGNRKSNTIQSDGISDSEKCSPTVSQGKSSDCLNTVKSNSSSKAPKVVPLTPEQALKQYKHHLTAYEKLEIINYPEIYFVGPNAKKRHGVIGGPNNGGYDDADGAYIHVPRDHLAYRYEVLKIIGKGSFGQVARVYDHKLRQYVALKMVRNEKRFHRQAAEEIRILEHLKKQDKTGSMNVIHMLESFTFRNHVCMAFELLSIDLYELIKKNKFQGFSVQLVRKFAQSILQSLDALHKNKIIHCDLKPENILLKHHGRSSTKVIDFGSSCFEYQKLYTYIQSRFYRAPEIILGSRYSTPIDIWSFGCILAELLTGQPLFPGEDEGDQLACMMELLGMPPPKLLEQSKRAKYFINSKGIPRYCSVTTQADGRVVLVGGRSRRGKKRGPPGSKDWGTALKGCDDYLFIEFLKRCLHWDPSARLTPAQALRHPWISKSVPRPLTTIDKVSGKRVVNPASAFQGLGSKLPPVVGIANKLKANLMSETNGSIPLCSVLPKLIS
Sequence of UniProt P11802 (whole entry, looked up): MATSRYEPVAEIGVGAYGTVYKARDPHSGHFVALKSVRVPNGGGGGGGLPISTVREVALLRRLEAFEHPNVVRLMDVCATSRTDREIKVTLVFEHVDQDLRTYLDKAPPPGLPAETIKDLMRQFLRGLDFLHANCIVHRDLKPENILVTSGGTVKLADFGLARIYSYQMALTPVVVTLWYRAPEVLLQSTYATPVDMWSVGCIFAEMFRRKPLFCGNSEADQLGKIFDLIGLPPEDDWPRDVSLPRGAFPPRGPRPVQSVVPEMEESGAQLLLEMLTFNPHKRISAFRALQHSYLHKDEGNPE
Sequence of UniProt P54764 (whole entry, looked up): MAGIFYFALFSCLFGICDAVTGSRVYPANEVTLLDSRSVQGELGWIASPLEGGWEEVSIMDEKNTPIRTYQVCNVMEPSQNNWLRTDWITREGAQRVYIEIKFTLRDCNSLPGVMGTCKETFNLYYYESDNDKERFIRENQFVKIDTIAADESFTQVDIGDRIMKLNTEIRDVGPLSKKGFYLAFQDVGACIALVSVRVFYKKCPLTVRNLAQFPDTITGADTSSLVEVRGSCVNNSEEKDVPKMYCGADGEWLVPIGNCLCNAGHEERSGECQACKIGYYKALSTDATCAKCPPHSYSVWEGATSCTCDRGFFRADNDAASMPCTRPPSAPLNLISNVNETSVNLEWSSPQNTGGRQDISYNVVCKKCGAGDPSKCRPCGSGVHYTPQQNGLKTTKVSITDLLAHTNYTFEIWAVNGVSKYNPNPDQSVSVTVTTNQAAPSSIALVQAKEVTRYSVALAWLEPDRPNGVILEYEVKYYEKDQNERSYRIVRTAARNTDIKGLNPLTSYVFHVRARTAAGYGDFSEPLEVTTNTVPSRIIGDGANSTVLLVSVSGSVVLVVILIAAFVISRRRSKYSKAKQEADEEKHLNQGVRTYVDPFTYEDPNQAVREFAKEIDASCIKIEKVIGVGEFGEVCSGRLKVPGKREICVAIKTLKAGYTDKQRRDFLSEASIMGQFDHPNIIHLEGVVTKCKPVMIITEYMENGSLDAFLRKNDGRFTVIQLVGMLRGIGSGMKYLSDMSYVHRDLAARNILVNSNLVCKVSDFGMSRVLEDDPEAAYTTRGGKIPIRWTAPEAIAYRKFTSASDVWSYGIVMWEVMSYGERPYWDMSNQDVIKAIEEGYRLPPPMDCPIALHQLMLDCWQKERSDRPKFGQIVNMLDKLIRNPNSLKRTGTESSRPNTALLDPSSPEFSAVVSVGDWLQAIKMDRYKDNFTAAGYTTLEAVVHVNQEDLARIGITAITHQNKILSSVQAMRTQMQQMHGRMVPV
Sequence of UniProt P00519 (whole entry, looked up): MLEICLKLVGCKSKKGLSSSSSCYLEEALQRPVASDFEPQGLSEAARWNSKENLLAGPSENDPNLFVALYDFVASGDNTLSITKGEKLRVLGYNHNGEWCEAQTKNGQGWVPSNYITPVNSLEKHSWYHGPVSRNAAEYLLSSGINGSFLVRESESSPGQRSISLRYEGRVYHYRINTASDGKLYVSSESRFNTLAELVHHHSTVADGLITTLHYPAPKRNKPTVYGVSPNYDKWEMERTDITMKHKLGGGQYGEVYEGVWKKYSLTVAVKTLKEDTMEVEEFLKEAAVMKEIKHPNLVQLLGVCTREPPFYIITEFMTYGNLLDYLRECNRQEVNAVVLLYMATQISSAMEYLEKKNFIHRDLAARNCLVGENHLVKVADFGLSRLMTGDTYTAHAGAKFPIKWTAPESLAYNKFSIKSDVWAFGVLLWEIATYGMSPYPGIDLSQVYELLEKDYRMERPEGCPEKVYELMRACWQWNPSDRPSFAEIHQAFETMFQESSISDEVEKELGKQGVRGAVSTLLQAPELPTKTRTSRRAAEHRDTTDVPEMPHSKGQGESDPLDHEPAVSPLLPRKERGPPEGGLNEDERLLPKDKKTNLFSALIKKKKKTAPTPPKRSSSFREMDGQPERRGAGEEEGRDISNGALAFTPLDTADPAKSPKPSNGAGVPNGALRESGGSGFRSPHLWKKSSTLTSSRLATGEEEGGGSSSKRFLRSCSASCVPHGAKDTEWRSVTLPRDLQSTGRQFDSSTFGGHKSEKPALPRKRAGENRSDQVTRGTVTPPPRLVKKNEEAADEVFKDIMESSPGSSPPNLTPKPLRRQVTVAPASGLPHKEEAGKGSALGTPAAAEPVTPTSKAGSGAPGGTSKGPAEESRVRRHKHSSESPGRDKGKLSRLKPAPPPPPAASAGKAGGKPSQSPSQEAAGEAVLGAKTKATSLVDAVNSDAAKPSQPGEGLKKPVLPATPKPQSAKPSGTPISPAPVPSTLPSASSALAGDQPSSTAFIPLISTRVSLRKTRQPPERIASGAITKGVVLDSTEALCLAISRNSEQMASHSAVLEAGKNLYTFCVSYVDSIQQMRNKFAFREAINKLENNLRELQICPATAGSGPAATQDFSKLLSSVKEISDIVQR
Sequence of UniProt O15530 (whole entry, looked up): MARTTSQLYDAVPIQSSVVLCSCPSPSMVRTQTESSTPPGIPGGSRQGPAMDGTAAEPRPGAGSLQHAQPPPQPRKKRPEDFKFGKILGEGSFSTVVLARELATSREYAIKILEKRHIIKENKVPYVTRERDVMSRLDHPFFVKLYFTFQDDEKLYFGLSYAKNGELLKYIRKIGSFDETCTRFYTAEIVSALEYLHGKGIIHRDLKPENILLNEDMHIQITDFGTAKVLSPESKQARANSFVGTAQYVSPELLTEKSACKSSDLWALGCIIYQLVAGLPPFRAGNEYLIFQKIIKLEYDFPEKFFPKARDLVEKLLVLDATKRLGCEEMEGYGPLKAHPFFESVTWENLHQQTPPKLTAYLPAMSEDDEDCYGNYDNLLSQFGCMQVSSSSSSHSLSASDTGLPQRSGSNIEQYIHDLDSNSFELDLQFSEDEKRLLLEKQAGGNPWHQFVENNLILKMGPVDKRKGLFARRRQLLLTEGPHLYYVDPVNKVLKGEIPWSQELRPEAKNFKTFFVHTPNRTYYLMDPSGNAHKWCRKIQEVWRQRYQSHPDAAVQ
Sequence of UniProt Q13554 (whole entry, looked up): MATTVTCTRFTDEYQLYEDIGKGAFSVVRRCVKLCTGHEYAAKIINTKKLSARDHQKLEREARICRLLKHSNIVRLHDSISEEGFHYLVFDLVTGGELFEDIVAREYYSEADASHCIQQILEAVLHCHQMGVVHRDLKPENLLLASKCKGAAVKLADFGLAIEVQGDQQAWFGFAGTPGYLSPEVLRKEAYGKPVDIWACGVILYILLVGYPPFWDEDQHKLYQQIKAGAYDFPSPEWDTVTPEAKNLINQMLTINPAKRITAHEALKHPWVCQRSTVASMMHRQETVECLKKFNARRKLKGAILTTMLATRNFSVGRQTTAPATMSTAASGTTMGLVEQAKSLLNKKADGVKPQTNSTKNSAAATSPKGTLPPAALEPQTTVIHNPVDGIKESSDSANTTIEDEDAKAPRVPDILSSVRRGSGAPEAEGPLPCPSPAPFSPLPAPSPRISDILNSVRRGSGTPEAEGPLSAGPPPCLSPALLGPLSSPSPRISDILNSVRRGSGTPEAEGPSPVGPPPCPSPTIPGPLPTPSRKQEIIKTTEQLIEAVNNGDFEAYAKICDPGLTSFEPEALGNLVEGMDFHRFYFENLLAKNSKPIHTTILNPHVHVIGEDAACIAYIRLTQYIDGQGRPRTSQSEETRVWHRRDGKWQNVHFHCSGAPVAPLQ

Sample 1
Target: Sal-like protein 4, full length isoform B (SALL4, Homo sapiens, UniProt Q9UJQ4-2, residues 1-616)
Technique: universal PBM
Molecule type: double-stranded DNA, one strand shown
Matrix: in vitro
Tested at: not given
Notes: 8-mer, flanks averaged, mean of replicates
Reading: higher = stronger binding
Strand	E-score
GACGGTCA	-0.12
GACTGTGC	-0.121
GCCGCACC	-0.291
CATTCCGG	-0.236
CCCACCCG	-0.121
AAGCTGTC	-0.222
TTCGCAAA	0.17
TCAGATGA	0.104

Sample 2
Structure (SMILES): COc1ccc2c(c1)c(C1=C(c3c[nH]c4ccccc34)C(=O)NC1=O)cn2CCCN(C)C
Observed: enzyme activity
Action: inhibitor
Tested at: 0.5 µM
Reference: control
target	remaining activity [%]
Cyclin-dependent kinase 4, with cyclin D3 (CDK4, Homo sapiens, UniProt P11802)	95.5
Serine/threonine-protein kinase 17A (STK17A, Homo sapiens, UniProt Q9UEE5)	84
3-phosphoinositide-dependent protein kinase 1 (PDPK1, Homo sapiens, UniProt O15530)	76.7
Calcium/calmodulin-dependent protein kinase type II subunit beta (CAMK2B, Homo sapiens, UniProt Q13554)	89.9
Ephrin type-A receptor 4 (EPHA4, Homo sapiens, UniProt P54764)	94.5
Tyrosine-protein kinase ABL1 (ABL1, Homo sapiens, UniProt P00519)	107
Dual specificity tyrosine-phosphorylation-regulated kinase 3 (DYRK3, Homo sapiens, UniProt O43781)	81

Sample 3
Target: Histone acetyltransferase KAT6A, winged helix 2, GST fusion (KAT6A, Homo sapiens, UniProt Q92794, residues 85-181)
Technique: protein binding microarray
Molecule type: double-stranded DNA, one strand shown
Matrix: in vitro
Tested at: not given
Notes: 8-mer, flanks averaged, mean of 2 arrays, mostly near background
Reference: not given
Reading: higher = stronger binding
Residues (chain): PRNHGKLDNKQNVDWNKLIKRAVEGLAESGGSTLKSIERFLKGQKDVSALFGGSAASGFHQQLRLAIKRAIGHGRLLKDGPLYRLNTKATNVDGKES
Strand	E-score
ACCGTTAC	-0.163
CATGGGAG	-0.0523
CGGGATGA	0.113
AACACCCT	-0.00239
GTAATTGA	0.00893
AGGCACCG	0.0613
TATCACAA	-0.0191
ACTGCGGA	0.00931

Sample 4
Target: TAR DNA-binding protein 43, full length, His tag (TARDBP, Homo sapiens, UniProt Q13148, residues 1-414)
Technique: RNA Bind-n-Seq
Molecule type: RNA
Matrix: in vitro
Tested at: 20 nM
Notes: 6-mer, flanks averaged, single round
With: 150 mM LiCl
Reference: input library
Reading: higher = stronger binding
Strand	6-mer enrichment (R)
GGCUCA	0.89
CCGGGG	1.1
UUCCCA	0.938
CGAAAG	0.815
GCCGUC	0.906
GGGUCA	0.99
AUGCAU	0.98
AAGGGG	1.22

For quick reference, copied from above (sample 4):
Strand	6-mer enrichment (R)
GCCGUC	0.906
AUGCAU	0.98
CCGGGG	1.1
AAGGGG	1.22
